# Assay results gathered from unrelated publications.
# Every numbered part comes from another study and shows a few of its results, in no order.

# Sample 1 — method: protein binding microarray; molecule type: double-stranded DNA, one strand shown; sample: in vitro; concentration: not given; relative to: not given; direction: higher = stronger binding
# Target: Histone acetyltransferase KAT6A, winged helix 1, GST fusion (KAT6A, Homo sapiens, UniProt Q92794, residues 1-85)
# Notes: 8-mer, flanks averaged, mean of 2 arrays, mostly near background
# Residues (chain): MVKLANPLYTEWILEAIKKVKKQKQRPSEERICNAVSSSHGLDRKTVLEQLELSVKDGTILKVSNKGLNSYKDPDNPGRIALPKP
Strand,E-score
CCGGTGAC,0.133
ATAACTAG,-0.0128
CGCGCAAA,0.316
AACGAGAG,-0.029
CACGTTCG,0.0172
ACAGTGTG,-0.15
GTCCAAAC,-0.0837
AATCAACC,0.0101
CACGCAGA,0.00461
AAGAGACA,-0.0983
GAGATTGA,-0.187
AGAGTAGG,-0.201
TAGGCGCA,0.0777
AGTCAGGA,0.0117
GGGCAGAC,0.0611
TAGGTAGA,-0.0674
ATAGATAT,-0.12
AGCCAGAA,-0.216
ACATGTGA,-0.0865
AATGCGGC,0.329
ATTGGGCG,0.00732
GTCGTGAA,-0.0107
GAGTATGC,0.147
ATGTTGGA,-0.0558
ACTCCGGA,0.0837

# Sample 2 — method: universal PBM; molecule type: double-stranded DNA, one strand shown; sample: in vitro; concentration: not given; direction: higher = stronger binding
# Target: Sal-like protein 4, full length isoform B (SALL4, Homo sapiens, UniProt Q9UJQ4-2, residues 1-616)
# Notes: 8-mer, flanks averaged, mean of replicates
# Construct (chain): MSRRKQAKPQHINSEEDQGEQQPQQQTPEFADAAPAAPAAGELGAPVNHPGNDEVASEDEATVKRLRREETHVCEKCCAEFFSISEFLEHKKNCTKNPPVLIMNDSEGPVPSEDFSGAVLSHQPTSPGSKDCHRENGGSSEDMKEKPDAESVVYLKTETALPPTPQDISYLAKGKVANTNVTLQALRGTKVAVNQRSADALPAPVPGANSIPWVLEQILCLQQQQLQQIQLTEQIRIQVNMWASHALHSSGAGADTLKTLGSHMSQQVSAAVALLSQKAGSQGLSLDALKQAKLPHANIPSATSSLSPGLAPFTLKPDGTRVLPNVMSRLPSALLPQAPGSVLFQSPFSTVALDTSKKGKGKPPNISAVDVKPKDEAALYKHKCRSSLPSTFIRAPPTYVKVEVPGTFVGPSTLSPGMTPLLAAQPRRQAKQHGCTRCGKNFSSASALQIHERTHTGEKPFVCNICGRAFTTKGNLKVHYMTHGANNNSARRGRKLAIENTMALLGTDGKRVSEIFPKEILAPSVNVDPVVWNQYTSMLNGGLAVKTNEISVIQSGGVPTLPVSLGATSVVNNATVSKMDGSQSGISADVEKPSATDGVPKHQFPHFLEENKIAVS
Strand,E-score
GACACCCA,-0.207
ATAGCAAG,0.167
CGAAGTAC,-0.0121
ATTACAAA,0.356
GTGACTTA,0.106
AAGGCGGA,-0.144
AACTTGGC,-0.0325
GAACAGTC,-0.142
AAGAGGAA,-0.0259
AAGTTAGG,-0.0837
GCAGATAA,0.101
CCTGGCAA,-0.148
GGTGCTCA,-0.0988
ACTTATGA,0.318
ATGAAACC,0.142
ACGTAGCT,-0.0187
GAGGGCAA,-0.0876
TGGCGAAA,-0.0308
CCAGGTAG,-0.149
CATCCAAC,0.0197

# Sample 3 — Molecule: RKLDLEGIGR; method: competitive growth deep sequencing; molecule type: peptide; concentration: concentration not given; direction: direction not given
target or system,test,system,conditions,growth enrichment score
yeast with cyclin E2-Cln2 chimera,"cell growth, binder",,peptide tiling library,1.65
Saccharomyces cerevisiae,binding,cyclin E1-Cln2 fusion strain,"tiling library, Cln2 subtracted",0.143
yeast with cyclin D1-Cln2 chimera,"cell growth, binder",,peptide tiling library,0.618
Saccharomyces cerevisiae,binding,cyclin D3-Cln2 fusion strain,peptide tiling library,0.829
Saccharomyces cerevisiae,binding,cyclin D3-Cln2 fusion strain,"tiling library, Cln2 subtracted",0.829

# Sample 4 — method: RNA Bind-n-Seq; molecule type: RNA; sample: in vitro; concentration: 100 nM; relative to: input RNA pool; direction: higher = stronger binding
# Target: RING finger protein unkempt homolog, zinc fingers 1-6, SBP tag (UNK, Homo sapiens, UniProt Q9C0B0, residues 30-357)
# Sequence of UniProt Q9C0B0 (30-357, looked up): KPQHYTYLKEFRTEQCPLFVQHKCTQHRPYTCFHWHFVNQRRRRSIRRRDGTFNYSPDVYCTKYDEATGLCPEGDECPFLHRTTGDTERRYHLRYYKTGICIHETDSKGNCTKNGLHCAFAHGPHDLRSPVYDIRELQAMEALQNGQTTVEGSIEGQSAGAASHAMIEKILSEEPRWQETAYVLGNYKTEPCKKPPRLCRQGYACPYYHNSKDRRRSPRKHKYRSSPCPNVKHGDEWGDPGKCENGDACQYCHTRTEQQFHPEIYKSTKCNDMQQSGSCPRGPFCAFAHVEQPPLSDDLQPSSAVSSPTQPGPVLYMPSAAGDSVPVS
# Notes: RNA with constant flanks, vertebrate orthologous sites, ends assumed
# Constant ends, left off below: GGGAGUUCUACAGUCCGACGAUC … CAACAGAGGAUUGAGCAUCA
Strand,bound/input enrichment [ratio]
AUUCAAACCUGUGGUGCCAUGGCCUCAUGUGGAAGGAGUAGAAGUGGACUUAGAGUCUAUUAGAAGAAAAAACAAGGCCAAAAAUGAACAGGAACACCAUGCUGGCGGAGAUUCCCAAAA,0.411
CUAGUUCACAACUGACUGGUUCACAGCAUUCCUUACAGAGUUAUCUAUCAAAUGCAAGUGUAGUUAAUUUUCAGGAAACAACCAGGCAGUCAUCUUUAUCCUGUAGCCCAACUGGAGAUU,0.962
UUCAGUCUUCCACAUAGGGUCGGCCUCAGAUCUAUAGGAUUUAUGACAAAUGUAUUAUUAUAUCUAGUUGAGUUUAAUAUUUUUUUAUUAGCCUGUAAAUAAAGAUGGCAUCUUCUACAU,1.06
GUCGCCGGAAUGACGUCGACCCUAACGUUGCAGUGGAAAGGAUGUCCCAGUAUGUGUUGGUAGUUACUGAAGGACGUAUAGCUGGUGUUGCCUUGUAUUUUAGCCGUUGUUUCAGGUUUC,0.624
CCCCGAUUUUAGAUGUGAUAUCUAGGCUCUCAUUCUAGUUUGUUUUUGUCUUUUCUUGUUUAGAUACCAAUCUUUUAAAUUCUUGCAUUUUAGUAAGAAAGCUACCUUUUUAUGGAUGUU,2.83
GAAGUAAAAUAUUGGAUGCAGUAUAUAAAUGAUCCAAGGCAGUGACUUCAGCUUUAGAUAUUAGUUUUAAGGUUAUUUUCAUUUAUUUAAACUUCUAGAUUGGAUUAUUUGUUAUUACCC,1.24
CUUAAUUAGAAGGUAGUGUAUGUUUCAUAAAGAAAAGUCUUUAUAAUUUUGUUUGUCAUAUAGUAUUUUGGAAUUUGUAUAAUGAGGACGUUUAGAAGCCAUAUCAGUGGCUUUUUUUAA,0.503
UUAAUCAGUUGACUUGUAUUCUGAUGAUAAAAUGUAACAUUGUGUAGCUUUUGUAUAAAAACAUGAAUUGGAAAUCGUCCAAAUAUCAAGCUAUUUUCUUGCUUUAAAGUUACUGAUGUG,0.208
AAACUUUUUUUUUUUAAUUUAAUUUUUUCCUUUCAGGGGUAAAGUUUGCUUUACCAAAAAUAGUGGUUGUAACAAAUUGAUCUGUUUUGGAUGUUGCUAUAGUGACAUGCAGUUCUCUAU,1.14
CAUCUCUCAUUUUAUAUGUCCAAAAAUGGCUUUGAAUUUUAAGCAAUUACUAGUUUUAAUUAGCUCUGCCCUCAUGAAGUAUUAUUAUAAUUCACCGUAAACAGAUAUCUGUCUGAAUUA,1.24
AUCAUGGUCGCUUUUUACCACCUCAAUGAGGUAGAGUCUCCCUUGGUAUGUGGUUGUUAUAAGAGCCAGUCGUACCUGAUAAGUCUCCACAUUUCCUUUCUUUCACUCUCUUAGUCGUCU,0.953

# Sample 5 — method: aptamer microarray, sandwich; molecule type: DNA with 2'F-ANA; sample: in vitro; concentration: 200 nM; together with: Cy3 exosite-II aptamer, 400 nM; direction: higher = stronger binding; strand: GGTTGGTGTGGTTGG
# Target: Prothrombin, mature alpha-thrombin (F2, Homo sapiens, UniProt P00734)
# Notes: whole 15-mer aptamer, many near background
Modification,mean fluorescence intensity
2'F-ANA at 1 2 3 5 7 10 11 12 13 15,85.1 a.u.
2'F-ANA at 2 5 6 7 9 10 11 15,97 a.u.
2'F-ANA at 2 4 5 7 9 10 12 14 15,45.1 a.u.
2'F-ANA at 1 2 3 4 11 12 13,229 a.u.
2'F-ANA at 4 5 14 15,43.2 a.u.
2'F-ANA at 9 11 13,458 a.u.
2'F-ANA at 2 3 5 7 8 10 13 15,54.5 a.u.
2'F-ANA at 2 3 4 5 6 8 9 10 11 15,91.6 a.u.
2'F-ANA at 3 5 6 7 8 9 10 11 12 13 14,58.1 a.u.
2'F-ANA at 3 4 5 6 8 9 10 13,47.1 a.u.
2'F-ANA at 2 4 5 9 11 12 14 15,50 a.u.
2'F-ANA at 4 7 10 13 14,60.2 a.u.
2'F-ANA at 2 3 5 9 10 11,54.6 a.u.
2'F-ANA at 1 2 5 6 7 11 12 15,79.3 a.u.
2'F-ANA at 1 3 5 7 8 9 10 11 12 14,49.6 a.u.
2'F-ANA at 2 3 6 7 8 10 11 13 14,221 a.u.
2'F-ANA at 1 6 10 11 12 15,67.3 a.u.
2'F-ANA at 6 7 9 11,360 a.u.
2'F-ANA at 2 3 4 5 6 7 9 10 13,52.6 a.u.
2'F-ANA at 5 6 10 11 12 14 15,47.4 a.u.
2'F-ANA at 1 3 8 9 11 12 13 15,497 a.u.
2'F-ANA at 2 3 4 5 9 12 13 14,47.1 a.u.
2'F-ANA at 1 2 4 5 6 9 10 11 12 13 15,53.2 a.u.
2'F-ANA at 5 8 10 12 13,54.7 a.u.
2'F-ANA at 2 8 10 14,105 a.u.

# Sample 6 — method: RNA Bind-n-Seq; molecule type: RNA; sample: in vitro; concentration: 20 nM; notes: 6-mer, flanks averaged, single round; together with: 150 mM LiCl; relative to: input library; direction: higher = stronger binding
# Target: TAR DNA-binding protein 43, full length, His tag (TARDBP, Homo sapiens, UniProt Q13148, residues 1-414)
Strand,6-mer enrichment (R)
ACCAUA,0.871
GUGGAG,1.36
UGUGUC,1.31
AUGUCC,0.939
UGUUGU,1.57
CUAGGC,0.871
CGACCG,0.815
UUAGAG,0.991
GGUCCU,0.938
CAAAAU,0.895
CGUCCC,1.01
GGGCGA,1.12
CACUGA,0.83
CUGUAG,1.12
CUUUAC,0.939
AAGAAC,0.9
UCUUAG,0.881
GGGCAA,1
UGAGCG,1.06

# Sample 7 — method: protein-binding microarray; molecule type: double-stranded DNA, one strand shown; sample: in vitro; concentration: 250 nM; notes: 60-bp whole probe; together with: salmon DNA 0.4 mg/ml; relative to: random background probes; direction: higher = stronger binding; constant ends, left off below: GCCTAGCAC … GTCTTGATTCGCTTGACGCTGCTG
# Target: Interferon regulatory factor 5, full length, phosphomimetic (IRF5, Homo sapiens, UniProt Q13568-2, residues 1-514, K96S/S451D/S453D/S456D/S462D)
Strand,log fluorescence
GACGGTTTCGACATTCGGGACGTGCTA,5.22 z-score
TTAGTACTGGACTATCGGTTAGTGCTA,6.07 z-score
TTAGTACTGGGTTTCGGTTAGTGCTAG,7.82 z-score
TCAGATTTCAGGAATTGAACTGTGCTA,0.654 z-score
TCAACTTCTCTTTTGGCACTGTGCTAG,1.04 z-score
TCATTTTCCTAATTGAAACTGTGCTAG,1.29 z-score
CTCTCCATGTGTTTAAAGACGTGCTAG,-0.0412 z-score
TTAGGACTGGACTATCGGTTCGTGCTA,4.24 z-score
TAGAAACTCGTGTTTTTCTCCGTGCTA,1.04 z-score
GACGGGCTGGGTCTCGGGACGTGCTAG,-0.741 z-score
GATTGGCTGACTTTGGAGATGTGCTAG,-0.279 z-score
TTAGGTTTCGGGACTGGGCTAGTGCTA,5.66 z-score
TCAAATAATCTTTTCACACTGTGCTAG,0.845 z-score
TTAGGGCTGCTTCTCCTTTAGTGCTAG,-0.201 z-score
GACGGACCGGGGTTTCGGGACGTGCTA,1.17 z-score
AGGATCCTGGGAGGGAGAGCGTGCTAG,-0.67 z-score
TTAGATATCAGTCACGATTAGTGCTAG,1.44 z-score
GAGGGTTTCGACACTGGGGACGTGCTA,3.02 z-score
TTAGCACTGGGACTGGGTTAGTGCTAG,-0.156 z-score
GACGGTATCCTACTGCTGAAGTGCTAG,-0.049 z-score
TTAAAACTGGGGTTTCGATTAGTGCTA,6.16 z-score

# Excerpt of the above (sample 7):
Strand,log fluorescence
TAGAAACTCGTGTTTTTCTCCGTGCTA,1.04 z-score
TTAGTACTGGACTATCGGTTAGTGCTA,6.07 z-score
GAGGGTTTCGACACTGGGGACGTGCTA,3.02 z-score
TCAGATTTCAGGAATTGAACTGTGCTA,0.654 z-score
GATTGGCTGACTTTGGAGATGTGCTAG,-0.279 z-score
TTAGCACTGGGACTGGGTTAGTGCTAG,-0.156 z-score
TCATTTTCCTAATTGAAACTGTGCTAG,1.29 z-score
GACGGTATCCTACTGCTGAAGTGCTAG,-0.049 z-score
GACGGGCTGGGTCTCGGGACGTGCTAG,-0.741 z-score
CTCTCCATGTGTTTAAAGACGTGCTAG,-0.0412 z-score
GACGGACCGGGGTTTCGGGACGTGCTA,1.17 z-score
TTAGATATCAGTCACGATTAGTGCTAG,1.44 z-score
TTAAAACTGGGGTTTCGATTAGTGCTA,6.16 z-score
TTAGGGCTGCTTCTCCTTTAGTGCTAG,-0.201 z-score
TTAGTACTGGGTTTCGGTTAGTGCTAG,7.82 z-score
AGGATCCTGGGAGGGAGAGCGTGCTAG,-0.67 z-score
TTAGGACTGGACTATCGGTTCGTGCTA,4.24 z-score
